Experimental data gathered from unrelated publications.
Each line is one published result; not all experiments were run side by side. ± marks the error that the study gave.
CYP3A5: Cytochrome P450 3A5 (CYP3A5, Homo sapiens, UniProt P20815)
Sequence of UniProt P20815 (whole entry, looked up): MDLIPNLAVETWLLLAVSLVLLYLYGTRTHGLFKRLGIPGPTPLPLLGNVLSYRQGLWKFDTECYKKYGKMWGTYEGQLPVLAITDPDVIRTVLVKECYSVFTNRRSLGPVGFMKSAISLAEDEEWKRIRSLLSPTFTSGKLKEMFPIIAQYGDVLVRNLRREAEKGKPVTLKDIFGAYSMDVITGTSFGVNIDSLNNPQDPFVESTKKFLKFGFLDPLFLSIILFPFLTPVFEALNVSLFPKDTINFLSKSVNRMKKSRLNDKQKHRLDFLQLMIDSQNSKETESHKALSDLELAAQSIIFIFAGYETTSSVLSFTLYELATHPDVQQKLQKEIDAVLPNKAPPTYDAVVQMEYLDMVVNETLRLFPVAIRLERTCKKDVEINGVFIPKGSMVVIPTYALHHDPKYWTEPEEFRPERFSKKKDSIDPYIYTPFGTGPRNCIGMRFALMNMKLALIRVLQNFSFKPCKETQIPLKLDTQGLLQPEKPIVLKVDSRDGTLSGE
SLC22A8: Organic anion transporter 3 (SLC22A8, Homo sapiens, UniProt Q8TCC7)
Sequence of UniProt Q8TCC7 (whole entry, looked up): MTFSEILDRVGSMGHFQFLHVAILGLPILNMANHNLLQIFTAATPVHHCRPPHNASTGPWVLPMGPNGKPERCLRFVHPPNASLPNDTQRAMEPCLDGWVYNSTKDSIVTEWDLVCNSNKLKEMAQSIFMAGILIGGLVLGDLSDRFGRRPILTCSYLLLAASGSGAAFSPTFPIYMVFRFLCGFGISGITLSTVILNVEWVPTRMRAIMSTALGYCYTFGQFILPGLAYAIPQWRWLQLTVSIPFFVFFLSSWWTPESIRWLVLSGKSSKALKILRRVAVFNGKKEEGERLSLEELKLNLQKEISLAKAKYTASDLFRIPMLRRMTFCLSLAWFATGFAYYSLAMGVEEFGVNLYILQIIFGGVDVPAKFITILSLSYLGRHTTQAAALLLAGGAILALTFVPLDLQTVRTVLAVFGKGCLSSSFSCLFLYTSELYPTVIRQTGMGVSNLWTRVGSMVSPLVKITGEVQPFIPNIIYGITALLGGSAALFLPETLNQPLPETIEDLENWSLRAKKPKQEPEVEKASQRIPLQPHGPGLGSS
ALB: Albumin (ALB, Homo sapiens, UniProt P02768)
CYP2C19: Cytochrome P450 2C19 (CYP2C19, Homo sapiens, UniProt P33261)
Sequence of UniProt P33261 (whole entry, looked up): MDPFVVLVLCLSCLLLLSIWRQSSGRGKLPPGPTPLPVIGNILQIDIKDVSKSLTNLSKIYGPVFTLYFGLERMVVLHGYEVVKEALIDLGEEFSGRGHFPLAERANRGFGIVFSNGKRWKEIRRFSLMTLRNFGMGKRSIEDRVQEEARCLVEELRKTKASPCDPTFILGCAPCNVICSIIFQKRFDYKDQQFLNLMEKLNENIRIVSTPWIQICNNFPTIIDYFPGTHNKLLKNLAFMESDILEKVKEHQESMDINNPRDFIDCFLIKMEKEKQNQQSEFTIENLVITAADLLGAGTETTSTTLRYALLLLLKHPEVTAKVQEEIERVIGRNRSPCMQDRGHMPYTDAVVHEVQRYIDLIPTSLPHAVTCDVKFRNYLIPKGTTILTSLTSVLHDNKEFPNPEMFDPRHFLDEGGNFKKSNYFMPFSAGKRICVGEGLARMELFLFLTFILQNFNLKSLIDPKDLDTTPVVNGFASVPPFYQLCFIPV
Sequence of UniProt P08183 (whole entry, looked up): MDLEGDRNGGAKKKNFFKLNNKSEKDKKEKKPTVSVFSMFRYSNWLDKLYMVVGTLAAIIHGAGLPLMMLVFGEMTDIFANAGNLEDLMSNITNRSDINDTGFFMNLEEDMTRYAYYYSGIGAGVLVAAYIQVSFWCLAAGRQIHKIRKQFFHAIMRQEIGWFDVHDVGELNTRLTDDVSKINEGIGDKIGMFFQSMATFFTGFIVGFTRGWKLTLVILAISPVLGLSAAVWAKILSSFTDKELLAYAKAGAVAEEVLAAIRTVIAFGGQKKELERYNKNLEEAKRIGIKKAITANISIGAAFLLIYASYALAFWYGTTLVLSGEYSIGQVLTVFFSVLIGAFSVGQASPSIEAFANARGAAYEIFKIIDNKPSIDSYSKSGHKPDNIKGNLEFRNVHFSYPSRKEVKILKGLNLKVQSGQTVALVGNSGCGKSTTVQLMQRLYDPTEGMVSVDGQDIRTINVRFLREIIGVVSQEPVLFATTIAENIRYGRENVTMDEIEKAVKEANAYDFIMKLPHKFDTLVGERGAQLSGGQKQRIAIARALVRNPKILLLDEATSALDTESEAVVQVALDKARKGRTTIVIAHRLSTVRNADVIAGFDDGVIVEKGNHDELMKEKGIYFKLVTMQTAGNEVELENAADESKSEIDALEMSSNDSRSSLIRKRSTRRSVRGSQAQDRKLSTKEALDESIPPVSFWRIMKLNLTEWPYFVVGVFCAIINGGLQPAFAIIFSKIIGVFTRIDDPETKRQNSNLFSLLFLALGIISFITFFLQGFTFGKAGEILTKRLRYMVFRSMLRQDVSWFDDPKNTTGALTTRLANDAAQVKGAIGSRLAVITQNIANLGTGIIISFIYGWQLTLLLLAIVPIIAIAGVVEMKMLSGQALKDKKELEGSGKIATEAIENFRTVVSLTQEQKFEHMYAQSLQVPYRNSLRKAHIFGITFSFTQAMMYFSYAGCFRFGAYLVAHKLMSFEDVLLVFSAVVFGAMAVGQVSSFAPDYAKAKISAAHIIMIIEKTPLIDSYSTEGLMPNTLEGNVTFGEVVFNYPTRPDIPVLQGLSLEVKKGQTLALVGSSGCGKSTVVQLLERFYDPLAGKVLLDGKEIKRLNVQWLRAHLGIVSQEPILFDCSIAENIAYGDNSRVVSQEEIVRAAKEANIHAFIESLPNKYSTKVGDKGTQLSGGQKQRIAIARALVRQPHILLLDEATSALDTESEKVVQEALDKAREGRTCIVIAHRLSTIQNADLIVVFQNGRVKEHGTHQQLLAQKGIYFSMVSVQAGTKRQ
Sequence of UniProt P18031 (whole entry, looked up): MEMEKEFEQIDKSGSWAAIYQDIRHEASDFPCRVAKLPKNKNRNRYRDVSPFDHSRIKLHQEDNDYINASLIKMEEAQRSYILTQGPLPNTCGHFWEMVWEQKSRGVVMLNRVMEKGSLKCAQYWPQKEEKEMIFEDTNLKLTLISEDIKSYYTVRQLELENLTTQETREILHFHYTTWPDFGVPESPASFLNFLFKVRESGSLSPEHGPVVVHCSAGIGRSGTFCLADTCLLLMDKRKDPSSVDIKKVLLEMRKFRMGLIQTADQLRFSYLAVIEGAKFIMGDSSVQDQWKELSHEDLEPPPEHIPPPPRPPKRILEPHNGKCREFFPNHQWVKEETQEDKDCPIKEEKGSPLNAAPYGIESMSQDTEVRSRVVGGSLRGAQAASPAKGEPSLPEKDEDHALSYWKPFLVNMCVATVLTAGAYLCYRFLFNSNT
Sequence of UniProt P05177 (whole entry, looked up): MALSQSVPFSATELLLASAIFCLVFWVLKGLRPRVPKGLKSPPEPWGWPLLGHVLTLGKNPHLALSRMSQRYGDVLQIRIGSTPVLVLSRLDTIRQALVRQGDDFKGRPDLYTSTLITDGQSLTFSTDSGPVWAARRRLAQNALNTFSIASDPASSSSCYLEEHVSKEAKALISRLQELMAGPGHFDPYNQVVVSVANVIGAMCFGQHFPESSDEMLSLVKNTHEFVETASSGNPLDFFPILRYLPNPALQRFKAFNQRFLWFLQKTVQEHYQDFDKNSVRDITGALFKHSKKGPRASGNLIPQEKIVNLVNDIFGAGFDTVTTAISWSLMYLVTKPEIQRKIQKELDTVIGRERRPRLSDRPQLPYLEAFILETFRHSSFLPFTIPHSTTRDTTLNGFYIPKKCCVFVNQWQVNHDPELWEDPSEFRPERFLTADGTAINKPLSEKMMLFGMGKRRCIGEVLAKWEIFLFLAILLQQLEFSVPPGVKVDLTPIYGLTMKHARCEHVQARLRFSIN
Sequence of UniProt Q86VL8 (whole entry, looked up): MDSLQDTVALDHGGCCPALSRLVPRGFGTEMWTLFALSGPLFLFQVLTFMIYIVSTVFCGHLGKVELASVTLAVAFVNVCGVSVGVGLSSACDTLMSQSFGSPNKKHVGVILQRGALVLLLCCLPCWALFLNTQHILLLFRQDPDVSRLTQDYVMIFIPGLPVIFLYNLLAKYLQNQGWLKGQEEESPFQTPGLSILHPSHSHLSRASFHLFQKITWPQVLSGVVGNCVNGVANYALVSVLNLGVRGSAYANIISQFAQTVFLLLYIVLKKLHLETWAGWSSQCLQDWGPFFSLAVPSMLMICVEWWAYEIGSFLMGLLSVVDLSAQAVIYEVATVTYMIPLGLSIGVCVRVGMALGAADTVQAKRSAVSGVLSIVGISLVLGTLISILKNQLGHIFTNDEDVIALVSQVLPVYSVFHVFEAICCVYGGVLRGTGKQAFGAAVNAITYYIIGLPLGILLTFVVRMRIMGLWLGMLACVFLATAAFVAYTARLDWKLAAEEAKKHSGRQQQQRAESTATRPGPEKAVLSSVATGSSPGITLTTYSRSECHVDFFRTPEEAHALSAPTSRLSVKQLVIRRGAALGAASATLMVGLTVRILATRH

Compound	target	test	test system	conditions	how to read	measurement	value
C[C@@H](Oc1ccc(S(C)(=O)=O)cc1C(=O)N1C[C@@H]2C[C@]2(c2cc(C(F)(F)F)on2)C1)C(F)(F)F	CYP3A5	recombinant CYP, depletion	phosphate buffer	pH 7.4		CYP contribution	3.87%
C[C@H](CCC(=O)NCC(=O)O)[C@H]1CC[C@H]2[C@@H]3[C@H](O)C[C@@H]4C[C@H](OS(=O)(=O)O)CC[C@]4(C)[C@H]3CC[C@]12C	SLC22A8	substrate	MDCK-II parental cells			uptake rate	8.4 ± 2.6 pmol/min/mg protein
Cc1cc(C)c(CNC(=O)c2cc(Cl)c3c(c2C)O[C@@](C)([C@H]2CC[C@H](N(C)C)CC2)O3)c(=O)[nH]1	ALB	ultracentrifugation	4% human serum albumin solution	600 ng/mL, 160 min		unbound fraction	0.621
CCC(CC)C(=O)Oc1cccc(C(O)CCN)c1.O=CO (stereo not shown)	porcine liver esterase			99 µM, 60 min	reference: time 0 min	compound remaining	33%
O=c1[nH]c(=O)c(Cc2cccc(C(F)(F)F)c2)c([C@H]2CC[C@H](c3ccccc3)CC2)[nH]1	SLC22A8	uptake, inhibitor	HEK cells expressing SLC22A8	together with: estrone-3-sulfate		IC50	> 1000 nM
COC(=O)c1cc(C(C)=NNc2nc(-c3ccc(OC)cc3)cs2)ccc1O	PTPN1 (Homo sapiens, UniProt P18031)	enzyme activity, inhibitor		concentration not given		duration of inhibition	~20 min
CCCC(CCC)C(=O)Oc1cccc(C(O)CCN)c1.O=CO (stereo not shown)	porcine liver esterase			99 µM, 30 min	reference: time 0 min	compound remaining	90.1%
C=CC(=O)Nc1cc(Nc2nccc(-c3cn(C)c4ccccc34)n2)c(OCC(F)(F)F)nc1N(C)CCNC	CYP3A5	substrate depletion	recombinant human CYP	1 µM		intrinsic clearance	0.3 µL/min/pmol
COc1ccc2nc([S+]([O-])Cc3ncc(CO)c(OC)c3C)[nH]c2c1 (stereo not shown)	CYP2C19		human	oral, 20 mg, Day 14, together with: encorafenib plus binimetinib	reference: Day -7	Cmax decrease	28%
Cc1oc2ccccc2c1Cc1cc(I)c(OCC(=O)O)c(I)c1	Voltage-gated inwardly rectifying potassium channel KCNH2, Δ2-373 truncation (KCNH2, Homo sapiens, UniProt Q12809)	hERG current, inhibitor, two-electrode voltage clamp	Xenopus oocytes expressing hERG1 Δ2-373	50 µM, test potential +30 mV		inhibition	61 ± 6%
OC[C@H]1O[C@@H](Oc2cc3c(O)cc(O)cc3[o+]c2-c2ccc(O)cc2)[C@H](O)[C@@H](O)[C@@H]1O	ALB	visible absorption spectroscopy	acetonitrile–HSA system	50 µM, pH 7, together with: HSA 200 µM		λmax	< 600 nm
COc1cc(O)c(CC=C(C)C)c(O)c1C(=O)/C=C/c1ccc(O)cc1	CYP2E1 (human)	enzyme activity, inhibitor	human liver microsomes	1 µM, pH 7.4, together with: chlorzoxazone		inhibition	< 10%
C=C1CCC2C(C)(CO)C(=O)CCC2(C)C1CCC1=CCOC1=O (stereo not shown)	UGT2B7 (Homo sapiens, UniProt P16662)	AZT glucuronidation, inhibitor	human liver microsomes	together with: zidovudine substrate		Ki	25 µM
O=C(c1ccc(C(=O)N2CCC(N3CCCC3)CC2)c(Nc2ccccc2)c1)N1CCC(N2CCCC2)CC1	Lethal(3)malignant brain tumor-like protein 3, MBT domains (Homo sapiens, UniProt Q96JM7)	FRAP	human cells	1 µM		FRAP recovery half-time	3.6 s
CCc1cc(/C(C)=N/OCc2ccc(C3CCCCC3)c(C(F)(F)F)c2)ccc1CN1CC(C(=O)O)C1	SLC47A2 (Homo sapiens, UniProt Q86VL8)	inhibitor	HEK293 transfected with SLC47A2	up to 40 µM, 2 min, together with: MPP+ 0.025 µM		maximal inhibition	13.8%
CC[C@H]1[C@@H](O)[C@@H]2[C@H](CC[C@]3(C)[C@@H]([C@H](C)CCNC(=O)NS(=O)(=O)c4ccc(C(C)(C)C)cc4)CC[C@@H]23)[C@@]2(C)CC[C@@H](O)C[C@@H]12	ABCB1 (Homo sapiens, UniProt P08183)		human, plasma	geometric mean		Tlast	70.8 h
COc1ccc2[nH]c([S+]([O-])Cc3ncc(C)c(OC)c3C)nc2c1 (stereo not shown)	CYP2C19		human, plasma	oral, 20 mg, Day 14, together with: encorafenib at steady state	reference: Day -7	geometric LS mean ratio of AUClast	0.827
CC[C@H](C)[C@@H]([C@@H](CC(=O)N1CCC[C@H]1[C@H](OC)[C@@H](C)C(=O)N[C@@H](Cc1ccccc1)C(=O)NCCCO)OC)N(C)C(=O)[C@@H](NC(=O)[C@H](C(C)C)N(C)C)C(C)C	CYP3A5	recombinant enzyme turnover		1 µM		CLint	0.81 µL/min/pmol
COc1cc2nc(N3CCN(C(=O)C4COc5ccccc5O4)CC3)nc(N)c2cc1OC (stereo not shown)	Alpha-1-acid glycoprotein 1, F1/S variants (ORM1, Homo sapiens, UniProt P02763)	binding, ultrafiltration competition		37 °C, together with: S-warfarin marker		Ki	47.2 µM
NC/C(=C\F)COc1cccc(Cn2c(=S)[nH]c(=O)c3[nH]cnc32)c1	SLC22A8	transport, inhibitor	CHO cells expressing SLC22A8	30 µM, together with: CF substrate		inhibition	< 50%
N#Cc1cc(NC(=O)[C@H]2c3ccccc3C(=O)N(CC(F)(F)F)[C@@H]2c2cccnc2)ccc1F	CYP1A2, 2C9, 2C19, 2D6, 3A4		human liver microsomes	concentration not given		inhibition	no inhibition
COc1cc(O)c(CC=C(C)C)c2c1C(=O)CC(c1ccc(O)cc1)O2 (stereo not shown)	CYP2E1 (human)	enzyme activity, inhibitor	human liver microsomes	1 µM, pH 7.4, together with: chlorzoxazone		inhibition	< 10%
COc1cc(-c2[o+]c3cc(O)cc(O)c3cc2O[C@@H]2O[C@H](CO)[C@@H](O)[C@H](O)[C@H]2O)cc(O)c1O	ALB	binding, fluorescence quenching		pH 7, 20 °C, HSA 2 µM		Kd	29.7 ± 0.77 µM
Cn1c(=O)c2c(ncn2C)n(C)c1=O	Cytochrome P450 1A2 (CYP1A2, Homo sapiens, UniProt P05177)		human, plasma	oral, 200 mg, day 1, alone, arithmetic mean		AUC(0-t)	32600 ng·h/mL
N#C[C@H](C[C@@H]1CCCNC1=O)NC(=O)[C@H](CC1CC1)NC(=O)c1cc2cccc(Cl)c2[nH]1	CYP2C19	NADPH metabolic stability		2 µM, pH 7.4, 100 pmol/mL enzyme		intrinsic clearance	0.66 µL/min/pmol
NCCC(O)c1cccc(OC(=O)C2CCCCC2)c1.O=CO (stereo not shown)	porcine liver esterase			99 µM, 60 min	reference: time 0 min	compound remaining	6.61%
COc1cc(-c2[o+]c3cc(O)cc(O)c3cc2O[C@@H]2O[C@H](CO)[C@@H](O)[C@H](O)[C@H]2O)ccc1O	ALB	binding, fluorescence quenching		pH 7, 20 °C, HSA 2 µM		Kd	44.1 ± 2.91 µM
C=CC(=O)N(C)CCOc1c(N)ncnc1-c1cc(F)cc(NC(=O)c2ccc(C3CC3)cc2F)c1C	CYP3A5	recombinant enzyme incubation				fraction unbound in microsomal incubation	0.94

Excerpt of the above:
Compound	target	test	test system	conditions	how to read	measurement	value
C=CC(=O)N(C)CCOc1c(N)ncnc1-c1cc(F)cc(NC(=O)c2ccc(C3CC3)cc2F)c1C	CYP3A5	recombinant enzyme incubation				fraction unbound in microsomal incubation	0.94
COc1cc2nc(N3CCN(C(=O)C4COc5ccccc5O4)CC3)nc(N)c2cc1OC (stereo not shown)	Alpha-1-acid glycoprotein 1, F1/S variants (ORM1, Homo sapiens, UniProt P02763)	binding, ultrafiltration competition		37 °C, together with: S-warfarin marker		Ki	47.2 µM
CCc1cc(/C(C)=N/OCc2ccc(C3CCCCC3)c(C(F)(F)F)c2)ccc1CN1CC(C(=O)O)C1	SLC47A2 (Homo sapiens, UniProt Q86VL8)	inhibitor	HEK293 transfected with SLC47A2	up to 40 µM, 2 min, together with: MPP+ 0.025 µM		maximal inhibition	13.8%
Cn1c(=O)c2c(ncn2C)n(C)c1=O	Cytochrome P450 1A2 (CYP1A2, Homo sapiens, UniProt P05177)		human, plasma	oral, 200 mg, day 1, alone, arithmetic mean		AUC(0-t)	32600 ng·h/mL
